Results gathered from unrelated publications.
Parts stem from different laboratories: compare values within a part only. Substitutions count along the parent as printed.

Block 1 — target: CCNB3, cyclin fold, Cln2 fusion (human); method: yeast growth competition, sequencing; medium: yeast; setting: weak parent motif; relative to: not given; reading: higher = stronger binding
Starting sequence: SLBP docking peptide (human); ARYKRKLLINDFG; partner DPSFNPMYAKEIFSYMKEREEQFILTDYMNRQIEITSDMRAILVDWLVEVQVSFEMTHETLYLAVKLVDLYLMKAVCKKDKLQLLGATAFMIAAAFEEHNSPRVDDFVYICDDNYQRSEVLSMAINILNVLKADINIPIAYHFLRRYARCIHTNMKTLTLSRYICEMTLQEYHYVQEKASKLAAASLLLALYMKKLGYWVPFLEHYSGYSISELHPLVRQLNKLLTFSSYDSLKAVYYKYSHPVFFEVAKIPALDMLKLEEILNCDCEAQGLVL
For `ARYKRKLLINDDG [F12D]`, “normalised enrichment score” read 0.192.
`ARYKRKNLINDFG [L7N]` — result for “normalised enrichment score”: 0.839.
Under “normalised enrichment score”, `ARYKCKLLINDFG [R5C]` is recorded as 0.452.
Under “normalised enrichment score”, `AIYKRKLLINDFG [R2I]` is recorded as 0.462.
`GRYKRKLLINDFG [A1G]`: “normalised enrichment score” 0.512.
For `ASYKRKLLINDFG [R2S]`, “normalised enrichment score” read -0.255.
`ARYKRCLLINDFG [K6C]`: “normalised enrichment score” 0.644.

Block 2 — method: RNA Bind-n-Seq; form: RNA; medium: in vitro; concentration: 365 nM; relative to: no-protein control; reading: higher = stronger binding
Target: RNA binding protein fox-1 homolog 2, RRM domain, GST-SBP tag (RBFOX2, Homo sapiens, UniProt O43251-10, residues 100-194)
Setting: natural RNA segment, single round, ends assumed
Shared flanks, not repeated: GGGAGUUCUACAGUCCGACGAUC … UGGAAUUCUCGGGUGCCAA
Residues (chain): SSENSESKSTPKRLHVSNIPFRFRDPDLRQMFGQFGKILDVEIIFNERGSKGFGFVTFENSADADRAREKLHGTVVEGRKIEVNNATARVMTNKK
Under “RBNS enrichment (R)”, `UCUGCAGGACCUUCUCUGUCCAGCGCCCCCUUUCUGUUGUGCGAUUAGUUGUAGCUGCCAUGCUCAGAAUUGCCUUUUGAGAGCUGAAGCAAGGUGCUUACUGUCACCUG` is recorded as 0.333.
For `UAUGUUUAAAAAGUAUGUUCUAAAAUUAUUAUAUAUACAUGGGUGAAUUAUGUUUCCGAGGCACUGUUUUAUCUCUGUGAAUCUUGAAUAACUUUUUUAUAUUUGGGUUA`, “RBNS enrichment (R)” read 1.08.
Under “RBNS enrichment (R)”, `CACUGCGAGAUGUGCAGCCUCCCCCGGACCUAGGGCUCUGGGCCUCUGCUGCAUGGGACUGGGCCAGCCCAGCCCUCUGAAGUCUGGAGCGCCACAUGUUCCCUAUAAGG` is recorded as 0.345.
For `UAUGGGAAGGCUGCAAAGGCUGAGAAAUGCAAAGGCUCAUAUUUAUAAAUCCCACCCCCAGAGUGGGGAGGGUCAGGUGCCAGACCUGGACUAAACUGCACCAAGGAAAC`, “RBNS enrichment (R)” read 1.36.
For `GGCCGGCACCUCUGCCCAUCUCCACUCAGGAGUGGUGACUGAGGUUCAUUUAGAAGGGAGCAAAGAGCGUUUUAAACUUUGAAAAGACCACAAAACAAACUGACCCUCCU`, “RBNS enrichment (R)” read 0.225.
`GCCUCAGUUUGCCAUCUAUGAAAUGAGGUGGACCCCUCUCCAUAGCCCUUGGGUGCCAGCUCAGUGGGUGUGGGGAUCACAUGAGGUGGCUCAUGAGGACACACUCUGGA`: “RBNS enrichment (R)” 0.513.

Block 3 — method: DHFR PCA, deep sequencing; medium: yeast; added: (+)-ABA 17 µM; relative to: wild-type fitted maximum; reading: higher = stronger binding
Target: ABI1, truncated, D143A, DHFR fusion (Arabidopsis thaliana)
Setting: methotrexate growth selection, single substitutions
Starting sequence: PYL1, truncated, DHFR fusion (Arabidopsis thaliana); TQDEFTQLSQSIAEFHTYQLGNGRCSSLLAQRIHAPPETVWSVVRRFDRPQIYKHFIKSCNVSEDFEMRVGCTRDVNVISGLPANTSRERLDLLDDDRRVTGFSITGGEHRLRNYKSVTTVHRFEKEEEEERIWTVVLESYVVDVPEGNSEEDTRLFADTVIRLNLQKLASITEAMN
For `F157S`, “relative binding score” read -0.0364%.
`I57R`: “relative binding score” -1.57%.
For `C60I`, “relative binding score” read 48.6%.
`S26P` — result for “relative binding score”: 0.673%.
`D75F`: “relative binding score” 80.3%.

Further values, each from its own experiment
The fold induction of `PhoQ, residues 284 288 289 292 302 303 AEGLLW` is reported as 3 (PhoP, residues 12 14 15 18 19 HLGGL (Escherichia coli, UniProt P23836); Sort-seq, measured: YFP reporter; E. coli; PhoQ-PhoP variant library, added: 10 µM Mg2+; relative to: high Mg2+ state, higher = stronger signaling).
